Measured values of several laboratories.
A part holds a random share of what one study measured.

Series 1
Target: Phosphate system positive regulatory protein PHO4, full length, GST-tagged (PHO4, Saccharomyces cerevisiae, UniProt P07270, residues 1-312)
Method: competition protein-binding microarray
Form: double-stranded DNA, one strand shown
Sample: in vitro
Concentration: 2 µM
Notes: whole 60-bp probe, lowest competitor level
Added: Cbf1 competitor, 0.05 µM
Direction: higher = stronger binding
All sequences stand within: … GTCTTGATTCGCTTGACGCTGCTG
Residues (chain): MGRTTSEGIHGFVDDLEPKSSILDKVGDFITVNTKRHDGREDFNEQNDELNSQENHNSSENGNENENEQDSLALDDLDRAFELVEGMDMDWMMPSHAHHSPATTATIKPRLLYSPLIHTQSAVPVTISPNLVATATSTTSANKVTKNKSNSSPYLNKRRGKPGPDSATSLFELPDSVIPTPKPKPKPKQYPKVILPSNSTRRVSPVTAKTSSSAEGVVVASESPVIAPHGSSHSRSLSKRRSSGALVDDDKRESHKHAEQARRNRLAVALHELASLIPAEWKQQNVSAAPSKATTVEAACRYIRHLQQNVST
Oligonucleotide	fluorescence intensity [a.u.]
GTTAATGTTGGAGCTGTTGTGACGGTATTAGAACAA	4360
AATATCCTCAACCTACACGTCTTCACCATCGGCACC	5930
CTAACGAAGGTTTTTCACGTGATCTACAAGCCAAGT	12400
AAATTACTAAGTTTTCACGTGTATTACCCCGTATGA	14700
CTTTCCCGATCTTGGAACGTGGGTGTAGCACATTTG	15000
ATTTGAACACCCCGTCACCTGAGTTAGGTAATTCAT	3790
CGTCCTAGTGATTGTCACAGCACTTCCATGAGGAAG	4770
AAAAAAAGAAGAGATAACGTGGGTACAGCTAAAAAA	12100
CTTCTGTAAATTTGTCCTGTGGGTGGACGCGCCCCG	4390
GCCATCTGTAATCAACATGTGAACTGAATGAAGCCG	6710
TCTCTCATTATTCCCACCGTGTCCTCAATCTCTTGT	6000
TTTCTCATATACCGTCACGTGGCCGGATGTTTATCG	16400
GAAGTAACTTGATACGTCGTGGGTAAATGGGTCTGT	7580
GTCTTGTCTCATTGGTGGGTGGGTGTCCCCACTTCA	4630
CTGAGCTTAATAAGCACCGTGCGATTACCTTCGTTT	6940
GAGGCAAAATAAGATCGTGTGTTTCAAATTGCCTTA	6780
CCCGCCCAAGCCGACCACGTGCCGCGAGCCCGGCGG	17200
CTTCTGTAAATTTGTTGTGTGGGTGGACGCGCCCCG	4750
CTTTCCCGATCTTGCTTCGTGGGTGTAGCACATTTG	7080
TGGAATGTATACCTGCACACGCTTGGTAAGGCCAAC	6870
ATCCTAGCCCTAACGCATGTGCTACTTCAAGGAATT	12500
ATTTCTTCTGTTTCACACGTTGTGCTTGCCAGGAAT	11800
AAATTACTAAGTTGTATCGTGGGTGACGCCGTATGA	7180
TACCCTCTCAGTCCGCACGTGCGGAGGGATCAGCCT	15400
AAGACTTAACGATACCACGTGTACAAAGCACTGAAT	18000

Series 2
Target: Histone acetyltransferase KAT6A, both winged helices, GST fusion (KAT6A, Homo sapiens, UniProt Q92794, residues 1-181)
Method: protein binding microarray
Form: double-stranded DNA, one strand shown
Sample: in vitro
Concentration: not given
Notes: 8-mer, flanks averaged, mean of 2 arrays, mostly near background
Reference: not given
Direction: higher = stronger binding
Target sequence (chain): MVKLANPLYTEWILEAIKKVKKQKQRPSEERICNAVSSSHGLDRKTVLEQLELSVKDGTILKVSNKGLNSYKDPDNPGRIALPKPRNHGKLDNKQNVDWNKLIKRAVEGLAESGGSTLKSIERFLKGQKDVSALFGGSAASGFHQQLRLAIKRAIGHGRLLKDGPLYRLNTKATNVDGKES
Oligonucleotide	E-score
CAACATCG	0.176
ACAACAAT	-0.178
GATAGGGC	-0.278
AATCGCTG	0.112
ACTAACGA	-0.0472
GCGCCCAA	0.167
CAAATCCA	-0.229
TTACAAAA	0.0658
ATATACTC	-0.163
AGGGCAAG	-0.192
AACAAAAT	-0.0943
AACGGCCC	0.138
CAATGCCA	-0.15
GGAACGCA	0.162
GCTATGCC	-0.0126
ATGGTGGA	-0.25
GGAGTCAA	-0.116
AACACGGG	0.225
CCGACCTC	-0.0385
AACTAAGA	-0.0775
CCTGGCCC	-0.169
ATTAGTCG	-0.0575
ACGCTTTA	0.0629
ACGAGCGA	-0.151
ATTAAGCG	0.12

Series 3
Target: RNA binding protein fox-1 homolog 2, RRM domain, GST-SBP tag (RBFOX2, Homo sapiens, UniProt O43251-10, residues 100-194)
Method: RNA Bind-n-Seq
Form: RNA
Sample: in vitro
Concentration: 365 nM
Notes: natural RNA segment, single round, ends assumed
Reference: no-protein control
Direction: higher = stronger binding
All sequences stand within: GGGAGUUCUACAGUCCGACGAUC … UGGAAUUCUCGGGUGCCAA
Residues (chain): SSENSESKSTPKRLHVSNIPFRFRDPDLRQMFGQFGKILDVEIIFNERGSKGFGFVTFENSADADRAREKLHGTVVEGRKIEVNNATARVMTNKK
Oligonucleotide	RBNS enrichment (R)
GGCCCCUGGAAAGCAGGGGUUACCGUUACGAGGCUGUGGUCCGGGGCAAGCCAAGUACGAAGCAGCAGCCAUCGCGGGCUGCAUCAUCCCCCAGCCAGGUCCCCACCAGG	0.244
CCCUUCUGGUAGAUUUUAAUGAUGCCAUUUUUCCAAAGCCCCCACUGUAAGGUUUCAAAAGCACUGGUAGGCAUAGCAUAGAUGUUCCAGUUACACACUCAGUAAACACU	0.664
GAAUGUGCCUUUUUCAGAGUUGGCCAGGAGCUCCUGGCUGGGACACGGAGAGGCAGGUGUGGCGUAAGGCCUCACUCCCGGCUGGGAAGGUCUCUGAUCACACAGAAGCA	9.45
GGGGAGACCUCUACUGCCUUGGACAACUUUUCUCAUGUUGAAGCCACUGCCUUCACCUUCACCUUCAUCCAUGUCCAACCCCCGACUUCAUCCCAAAGGACAGCCGCCUG	0.594
CAUCUCUUAUAGGAAUCAAAGUUUAUUAAAGUUACAUAGAGGAUUGAAAAAUGUAUAUCACUCAAUUUUUAUCUAAGAAGGAUAGGUUAUAAAGGGAGGUACCUAAAUAC	1.1
UGACUGUACUCACGGCUAACUUGAAGUAUUAAAAUGAGGCUGUACUCUACACACUUCCUAGUCACGCAGGAUCCCUGUAGCCAAAACAGUAUAUGUUCCAGCUGCAGAGA	0.189
UUAAAGAAAAAUCUUCUAAGGGAUUUGGAUUUUACUUUCUUUAGAAUGACAAGUGAAUCAUAUUGACAUUUUACAAUCUUAGAUUUUUCUUUUUUUUUCUUUUGAGACAG	0.632
AUCCAAUGGGAAUGAAUGUAGAUGGCUAAAGGACUCUUCCUCAGUGUGGUGUAUAUUUCAACAGGGACCCUUGUAAAUUGUCAUAUGCCAAUAAAAUGUCCUAAGUGGUA	1.21
UCUAGUGGGCAGGGUGAGUGAUGGCUGAAUCGCUUUGUCCACCUGUGUGUGUGUCUUAGUGGAUCUUUACUUACCCAGGAGCAGGGCUAUGCUUACUCCUUGAAGCUCCU	0.652
CGAUUGAGUAGCUGAGAUUACAGGCAUGCAUCACUAUGCCUGGCUUUUUGUAUUUUUUAGUAGAGAUGGGGUUUACCAUGUUGGCCAGGCUAGUCUCAAACUCCUGACCU	1.12
CCCUUCUGAGCCUGUUGUACUCACUGAUCUCUUUAAAAACAAAAAAUAGCUCUUGUAAAAGGUCACAAUAACUCUAUGCACCUGAUACUGCAGUGGUUCCUAGGCCAUUC	0.423
CCAAGGGCCUGAAUUUUAACUUCCUGUGCACAAUGUACCUUUUGAGAUGAUUCGAAGGGCCUUUCACUUUUAUUAAACAGUGACUUGUUUGACUGUGCUCCCUGGUCCUG	0.446

Series 4
Target: RING finger protein unkempt homolog, zinc fingers 1-6, SBP tag (UNK, Homo sapiens, UniProt Q9C0B0, residues 30-357)
UniProt Q9C0B0, sequence (30-357, looked up): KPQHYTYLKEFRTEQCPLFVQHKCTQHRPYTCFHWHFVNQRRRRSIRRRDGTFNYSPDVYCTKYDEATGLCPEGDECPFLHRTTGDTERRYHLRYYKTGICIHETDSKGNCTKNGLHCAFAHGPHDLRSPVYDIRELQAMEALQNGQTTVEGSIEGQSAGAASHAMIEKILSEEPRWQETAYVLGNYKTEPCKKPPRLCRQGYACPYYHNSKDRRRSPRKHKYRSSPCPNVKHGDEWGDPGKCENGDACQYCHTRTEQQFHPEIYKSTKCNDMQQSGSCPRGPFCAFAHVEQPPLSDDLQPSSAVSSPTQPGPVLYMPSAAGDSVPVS
Method: RNA Bind-n-Seq
Form: RNA
Sample: in vitro
Concentration: 100 nM
Notes: RNA with constant flanks, vertebrate orthologous sites, ends assumed
Reference: input RNA pool
Direction: higher = stronger binding
All sequences stand within: GGGAGUUCUACAGUCCGACGAUC … CAACAGAGGAUUGAGCAUCA
Oligonucleotide	bound/input enrichment [ratio]
AUCUCUCACUUCAUAGGUCCAACAAUUGCUCUGAGUUUUGAAAUAUUUUGCAGUUUAAAUGAGGUCUGCUCCAGCAGACAUUCAUGCAGUGCCCCAUAGUCUGAAUGCUUUCUGAAGUGC	0.848
GAUUAGUGUCAUACCAGCAUAUUAACCUCUCGUCUGUGCACAGCUUCAAAUGUUACCGUCUAGUUAGAUUUUUAUUUAAAAUAUGAAAAACCGCUUUUCCCAAGACUUUUUUAAAAACAA	2.52
AGAAGAGCUGAGUAAAGUAAGGCCGUGUUCACUUAGAGUGUUUUUCUUGUUUUUAGUUUGCUAGGGGUUGGGUGGGUUGUGGUACACACCUUCUCUGAGGCAGGAGCUGUAAUGAUACCU	3.05
AGGAGAGGGAAAAAGCUGAGCAGAUCUUUCUCCCCCCAAAUAAAGCCAAAAAGAGUUGGCUUUAGUUCUGUCUUUAAAAGCAAAGGUGGCAUUUUCUCUUGAUCGUGUGGCUAUCCUCAC	0.586
ACGGCAGGUCUAGGACCUGCUGCUCAGAGUAGCAUACGAGCCGCUUCAGCCCGGCCAUUUUGGCUCCGUUUUUUAACAGUGCCCUUAUUAUCCUGUAUAUAUGCCUGAGAUUUGGAAAUA	0.385
UUACAGUCAUUGAUGGACUCUAUUUUUUUAUUAUUACUUGGACCUUGGUCGUUUUUAUACUAGCAAAAUGUCUUGUUUUACUUUUGUGUUUUUUGGGGGGGGAGGGAGUGAACUUGCUGA	2.47
GUUGUGACCCAUUUAACAUACACAAAAAAUUAGCCAAAAAAAAUUUGCAUGUAAUUGACUUAGAUGAUGCCACUUUUCUGAGUGCAAAAUUCGGAAGACAGCUUGUACCUGGUUGGAAGC	1.92
UCUCUUCUCCCCUGUCCUGAUUUUAAAAGCCCUUCUUUUUUUUUUUCUUUUUUCUUUUUUUAGGCAUAUGUAGUAAUAUUAGAAACAUUUAAUUUGGGAAACUUUGAUUCUUGAAAGAGA	1.95
UUUUAUUGAUCAGGUCUGUAAAUGUGUACUAAAAAAAUCAGAAUUUAUUUAUAAACAGAAUAGUUUAUUUAAAGAGAAGGUCUUUUCCUUAUUGAUAUCAUGGUAUGCAUUAAUUCCAUU	0.175
UUCAGGCACAACUGACUGGUUCACAGCAUUCCUUACAUAGUUAUCUAUCAAAUGCAAGUGUAGUUAGUUUUCCCGAAACAACCAGGCAGUCCUCUUUAUCCUGUAGCUCAAUUGGAGAUU	1.58
UCUGUAUACUUUUAAAAAUACUUCCAUAUACGACAUGUUGGCUACUCAUACAUUUAAUCAUAUUUACGUAUCUAUUUUUUAUAAUAGCAGUGCAGAUUCAAAGGGGGCUCCUUUCAGGUU	1

Series 5
Target: Sal-like protein 4, full length isoform B (SALL4, Homo sapiens, UniProt Q9UJQ4-2, residues 1-616)
Method: universal PBM
Form: double-stranded DNA, one strand shown
Sample: in vitro
Concentration: not given
Notes: 8-mer, flanks averaged, mean of replicates
Direction: higher = stronger binding
Target sequence (chain): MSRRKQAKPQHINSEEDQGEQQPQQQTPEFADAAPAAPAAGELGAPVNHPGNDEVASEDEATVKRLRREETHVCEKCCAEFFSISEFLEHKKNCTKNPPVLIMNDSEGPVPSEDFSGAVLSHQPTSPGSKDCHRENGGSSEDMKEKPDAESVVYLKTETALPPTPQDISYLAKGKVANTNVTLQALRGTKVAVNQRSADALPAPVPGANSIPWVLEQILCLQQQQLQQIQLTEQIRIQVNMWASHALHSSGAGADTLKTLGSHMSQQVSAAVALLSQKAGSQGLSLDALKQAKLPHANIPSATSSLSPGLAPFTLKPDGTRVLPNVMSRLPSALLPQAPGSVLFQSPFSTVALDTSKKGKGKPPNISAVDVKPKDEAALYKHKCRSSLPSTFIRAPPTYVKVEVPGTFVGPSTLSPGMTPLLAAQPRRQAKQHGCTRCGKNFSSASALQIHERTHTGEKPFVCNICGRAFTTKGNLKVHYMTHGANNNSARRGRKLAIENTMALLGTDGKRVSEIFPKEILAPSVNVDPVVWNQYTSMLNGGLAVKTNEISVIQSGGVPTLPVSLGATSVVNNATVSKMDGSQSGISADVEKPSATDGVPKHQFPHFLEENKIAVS
Oligonucleotide	E-score
CTATGAAG	0.183
AAGGTTCG	-0.154
ATAACAGA	0.309
CGTGACTC	-0.129
CTTATACC	0.136
CGACTTAA	0.267
GTGGTCCA	-0.207
CAGGCAGC	-0.301
AAACATAC	0.197
ATACTTCA	0.247
CGTAATCC	-0.065
CCGGTAAA	-0.0076
CTCCTTCA	-0.00685
GATTCACA	0.0188
CTGATGGA	-0.147
GTGACCGA	-0.117
ACATACGC	0.0325

Some of these lines once more (series 2):
Oligonucleotide	E-score
CCTGGCCC	-0.169
ATTAGTCG	-0.0575
ACGCTTTA	0.0629
ACGAGCGA	-0.151
ATTAAGCG	0.12
